Results gathered from unrelated publications.
A part holds a random share of what one study measured.

Set 1
Target: Interferon regulatory factor 5, full length, phosphomimetic (IRF5, Homo sapiens, UniProt Q13568-2, residues 1-514, S451D/S453D/S456D/S462D)
Method: protein-binding microarray
Form: double-stranded DNA, one strand shown
Sample: in vitro
Tested at: 940 nM top
Setting: 60-bp whole probe
Together with: salmon DNA 0.4 mg/ml
Relative to: random background probes
Direction: higher = stronger binding
Shared flanks, not repeated: GCCTAGCAC … GTCTTGATTCGCTTGACGCTGCTG
Sequence | fitted relative affinity [z-score]
ACTCCTATCCAAGTTCCCCTGGTGCTA | 0.826
TTAGGGTTCGGACTGGGTTAGTGCTAG | -0.0617
GACGGTTTCCTTGTCCTGACGTGCTAG | 1.15
GACGGTATCCTGATCCTGACGTGCTAG | -0.349
TTACATTTCGGGTATCGATTAGTGCTA | 3.76
AACGATTTCGGGACTGGAGACGTGCTA | 0.0644
TCACATACGAGTTTCCATTTGTGCTAG | 1.02
GACGATCTCAGTTTCAAGACGTGCTAG | 1.13
TTAGAAATCGGGTATCGATTAGTGCTA | 3.24
TTAGGACTGCTTATCCTCTAGTGCTAG | -0.273
TTAGGTTTCGCCTTTCGGTTAGTGCTA | 8.92
GCCTTTATATACCTGAATATGTGCTAG | 0.577
TTAGGAGTGCTTTTCCTTTAGTGCTAG | -0.491
TTAGATATCGGGTAACGATTAGTGCTA | 0.299
GGCGGTCTCGGTTTCGGGACGTGCTAG | 6.75
TTAGCTATCCTACTGCTTTAGTGCTAG | 0.2

Set 2
Target: Ras GTPase-activating protein-binding protein 1, RRM domain (G3BP1, Homo sapiens, UniProt Q13283)
Chain of UniProt Q13283 (whole entry, looked up): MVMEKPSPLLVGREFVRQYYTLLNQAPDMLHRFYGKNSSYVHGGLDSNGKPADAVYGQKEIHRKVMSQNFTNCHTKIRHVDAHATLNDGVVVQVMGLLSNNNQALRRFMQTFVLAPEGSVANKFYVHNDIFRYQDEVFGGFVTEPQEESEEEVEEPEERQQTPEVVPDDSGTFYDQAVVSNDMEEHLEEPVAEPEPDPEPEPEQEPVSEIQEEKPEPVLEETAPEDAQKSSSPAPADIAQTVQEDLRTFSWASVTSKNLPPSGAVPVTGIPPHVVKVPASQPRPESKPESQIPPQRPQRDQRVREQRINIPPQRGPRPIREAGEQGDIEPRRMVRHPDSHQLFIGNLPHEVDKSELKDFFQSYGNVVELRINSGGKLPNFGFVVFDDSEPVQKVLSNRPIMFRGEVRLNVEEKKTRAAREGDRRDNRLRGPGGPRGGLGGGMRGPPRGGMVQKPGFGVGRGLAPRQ
Method: RNA Bind-n-Seq
Form: RNA
Sample: in vitro
Tested at: 1 µM
Setting: whole 134-nt RNA, ends assumed
Together with: 150 mM KCl
Relative to: input library
Direction: higher = stronger binding
Sequence | log2 enrichment
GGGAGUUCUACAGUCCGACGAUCGUCCUGUGCUACACAUCGUAUGUACCGAAUCGGAAAAAGGGAAAAAGGGGAAAAAGGGGAAAGUAUUAUGUUACGCCGUUCGGAUCUGCAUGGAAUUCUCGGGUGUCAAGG | 0.12
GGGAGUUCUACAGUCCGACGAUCAGUCCUGUGCUACACAUCGUAUGUACCGAAUCGGGAAAAAGGGUUUGGGUUUUUGGGAAAGUAUUAUGUUACGCCGUUCGGAUCUGCACUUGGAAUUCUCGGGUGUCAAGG | 0.24
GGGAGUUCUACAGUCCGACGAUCGUCCUGUGCUACACAUCGUAUGUACCGAAUCGGAAAAAGGAAAAAAAGGUUUUUUUGGAAAGUAUUAUGUUACGCCGUUCGGAUCUGCACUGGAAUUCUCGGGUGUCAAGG | -0.0622
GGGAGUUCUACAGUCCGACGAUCUAACUUUAUAGGAGGAUCUGAUGGAUAUGGCAGUGGACGUGGAUUUGGGGAUGGCUAUAAUGGGUAUGGAGGAGGACCUGGAGGUGGCAAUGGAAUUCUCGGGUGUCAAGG | -0.731
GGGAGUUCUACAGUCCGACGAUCUAACUUUAGAGGAGGAUCUGAUGGAUAUGGCAGUGGACGUGGGUUUGGGGAUGGCUAUAAUGGGUAUGGAGGAGGACCUGGAGGUGGCAAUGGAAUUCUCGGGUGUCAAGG | -0.552
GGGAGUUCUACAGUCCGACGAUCUGGGAGGUGGAUUCUGUUUAUUUUUUUAGCUCAUUUCCAGGGGUGGGAAUUUUUUUUUAAUAUGUGUCAUGAAUAAAGUUGUUUUUGAAAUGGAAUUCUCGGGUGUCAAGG | 1.83
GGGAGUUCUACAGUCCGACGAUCGCAGGAAAAAAAAACAAAUGGAAAUGCUUCGGAUAGUGGCAGGGGUGGGGGUUGCUAAGGAAAGGGUGGGAUGGGAGUGGGUAAAGAGUUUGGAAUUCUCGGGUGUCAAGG | 1.12
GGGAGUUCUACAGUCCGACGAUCUCCUGUGCUACACAUCGUAUGUACCGAAUCGGGGAAAGGGGUUUGGGGAAAAAAAGGGGAAAGUAUUAUGUUACGCCGUUCGGAUCUGCAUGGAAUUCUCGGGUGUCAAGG | 0.77
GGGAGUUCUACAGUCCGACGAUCUGGCCCUGGUGGCAUGCGGGGAGGAAGAGGUGGCCUCGUGGAUCGUGGUGGUCCCGGUGGAAUGUUCAGAGGUGGCCGUGGUGGAGACAGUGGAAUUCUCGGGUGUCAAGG | 0.845
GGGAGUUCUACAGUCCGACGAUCUGGCCCUGGUGGCAUGCGGGGAGAAAGAGGUGGCCUCAUGGAUCGUGGUGGUCCCGGUGGAAUGUUCAGAGGUGGCCGUGGUGGAGACAGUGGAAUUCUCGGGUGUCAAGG | 0.956
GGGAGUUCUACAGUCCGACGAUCACCAUGCAGGUGGGCAUCUUUGGGAAGUGGGGCAAGGGGGGGAUAGGGAGGGGGGUAACACUUUGGGAACAGGUGGUCCCAGGUCGAUUCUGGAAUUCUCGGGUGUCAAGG | 0.24

Set 3
Target: Centromere-binding protein 1, full length, His-tagged (CBF1, Saccharomyces cerevisiae, UniProt P17106, residues 1-351)
Chain of UniProt P17106 (whole entry, looked up): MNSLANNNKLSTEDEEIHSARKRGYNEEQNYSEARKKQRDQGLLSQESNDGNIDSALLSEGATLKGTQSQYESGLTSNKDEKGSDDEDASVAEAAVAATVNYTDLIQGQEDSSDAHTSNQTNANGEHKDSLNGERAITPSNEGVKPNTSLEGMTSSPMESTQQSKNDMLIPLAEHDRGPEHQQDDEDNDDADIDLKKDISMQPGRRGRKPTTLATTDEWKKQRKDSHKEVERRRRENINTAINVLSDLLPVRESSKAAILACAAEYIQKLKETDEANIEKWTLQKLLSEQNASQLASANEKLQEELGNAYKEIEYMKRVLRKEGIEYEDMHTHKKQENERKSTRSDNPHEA
Method: competition protein-binding microarray
Form: double-stranded DNA, one strand shown
Sample: in vitro
Tested at: 2 µM
Setting: whole 60-bp probe, lowest competitor level
Together with: Pho4 competitor, 0.05 µM
Direction: higher = stronger binding
Sequence | fluorescence intensity [a.u.]
AAATTACTAAGTTGTTGAGTGGGTGACGCCGTATGAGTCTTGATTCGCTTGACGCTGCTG | 74.1
CTTAATGGACTAAAGCACGTGACTCGTAAAACCCATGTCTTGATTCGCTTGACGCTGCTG | 14300
GAATGAGGTTGATAACTCGTGGATTTTTTATACCTGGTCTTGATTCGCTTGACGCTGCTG | 83.6
AAAGCGGTAATTTGACTGGTGGGTGCAGATATCTATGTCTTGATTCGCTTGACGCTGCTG | 74.2
CTAACGAAGGTTTGCTAGGTGGGTGACAAGCCAAGTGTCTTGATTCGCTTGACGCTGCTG | 62.4
GTCTTGTCTCATTGATGTGTGGGTGTCCCCACTTCAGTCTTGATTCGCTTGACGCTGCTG | 83.8
CCGATGATATGATTGCACGTCCACTGAACAGGTTAAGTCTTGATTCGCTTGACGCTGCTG | 74
ATTTGGTTATGCTTGTATGCCTCTATTATTTACTTGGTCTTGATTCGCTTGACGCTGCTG | 68.5
TTGAGTATTATGGTGGCATACTTTCAAGGGAGCTTGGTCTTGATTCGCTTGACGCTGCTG | 74.6
TCTGATTGTGACAGCCACGTGGCCGGCTGAGTGTAAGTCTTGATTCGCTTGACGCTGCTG | 1030
AAAGCGGTAATTTGCGATGTGGGTGCAGATATCTATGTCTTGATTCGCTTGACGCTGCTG | 75.9
AACGAGCTCTGCTGGCACGCATTGAAGTTGGTTCATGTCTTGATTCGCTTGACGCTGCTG | 84.9

Set 4
Target: TAR DNA-binding protein 43, full length, His tag (TARDBP, Homo sapiens, UniProt Q13148, residues 1-414)
Method: RNA Bind-n-Seq
Form: RNA
Sample: in vitro
Tested at: 20 nM
Setting: 6-mer, flanks averaged, single round
Together with: 150 mM LiCl
Relative to: input library
Direction: higher = stronger binding
Sequence | 6-mer enrichment (R)
CGCUCG | 0.833
UGCUUC | 0.928
ACUGAC | 0.833
CUUGUU | 1.14
UGUUAA | 1.07
CUAAUG | 0.905
UCUUUC | 0.994
CUAUAC | 0.855
UGAGGU | 1.18
GCGCAA | 0.97
AAGACG | 0.837
ACAAAA | 0.849
GAACAG | 0.9
UUCGAC | 0.83
AGACGU | 0.897
UUGAUG | 1.1

Set 5
Target: Histone acetyltransferase KAT6A, winged helix 1, GST fusion (KAT6A, Homo sapiens, UniProt Q92794, residues 1-85)
Method: protein binding microarray
Form: double-stranded DNA, one strand shown
Sample: in vitro
Tested at: not given
Setting: 8-mer, flanks averaged, mean of 2 arrays, mostly near background
Relative to: not given
Direction: higher = stronger binding
Target sequence (chain): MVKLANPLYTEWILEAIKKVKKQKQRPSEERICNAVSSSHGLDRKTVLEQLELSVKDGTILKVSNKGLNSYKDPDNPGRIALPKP
Sequence | E-score
CGTGGAGA | -0.0636
AATCCCAT | -0.161
GCTTTATA | 0.0416
GCTAAATA | -0.0599
CAGCGATC | 0.146
CAGAGCTA | -0.0617
CATGTAAC | 0.12
CAGGCTAA | -0.122
GTATCTAA | 0.00995
ACGATCCA | -0.222
CGGGTGAC | 0.348
ATACCGTA | 0.211
ACGGTACG | 0.348
ACCTCGAA | -0.265
ACTGCTGA | -0.0707
ACGGGTCA | 0.194
AGGAACTA | -0.165
CCAGTAGA | -0.256
AGTCAGAC | -0.13
GTGATTTA | -0.0583
CTTAAAAG | -0.196
AACTCCCT | -0.108
CCCCATCG | 0.0522
ACCGCAGT | 0.0882

For quick reference, copied from above (set 1):
Sequence | fitted relative affinity [z-score]
TTACATTTCGGGTATCGATTAGTGCTA | 3.76
GACGATCTCAGTTTCAAGACGTGCTAG | 1.13
GCCTTTATATACCTGAATATGTGCTAG | 0.577
ACTCCTATCCAAGTTCCCCTGGTGCTA | 0.826
TCACATACGAGTTTCCATTTGTGCTAG | 1.02
TTAGCTATCCTACTGCTTTAGTGCTAG | 0.2
TTAGGAGTGCTTTTCCTTTAGTGCTAG | -0.491
TTAGAAATCGGGTATCGATTAGTGCTA | 3.24
TTAGATATCGGGTAACGATTAGTGCTA | 0.299
TTAGGGTTCGGACTGGGTTAGTGCTAG | -0.0617
GACGGTATCCTGATCCTGACGTGCTAG | -0.349
